Results from different studies.
Each line is one published result; not all experiments were run side by side. “And” joins repeats or separate records; there may be more than shown. ± marks the error that the study gave.
ESR2: Estrogen receptor beta (ESR2, Homo sapiens, UniProt Q92731)
Chain of UniProt Q16774 (whole entry, unmodified, looked up): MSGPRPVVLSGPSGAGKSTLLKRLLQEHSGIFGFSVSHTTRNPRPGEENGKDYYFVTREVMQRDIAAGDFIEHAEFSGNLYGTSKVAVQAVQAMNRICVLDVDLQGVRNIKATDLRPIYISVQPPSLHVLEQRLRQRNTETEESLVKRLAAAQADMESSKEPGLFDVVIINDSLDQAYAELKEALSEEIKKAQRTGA
Chain of UniProt Q92731 (whole entry, looked up): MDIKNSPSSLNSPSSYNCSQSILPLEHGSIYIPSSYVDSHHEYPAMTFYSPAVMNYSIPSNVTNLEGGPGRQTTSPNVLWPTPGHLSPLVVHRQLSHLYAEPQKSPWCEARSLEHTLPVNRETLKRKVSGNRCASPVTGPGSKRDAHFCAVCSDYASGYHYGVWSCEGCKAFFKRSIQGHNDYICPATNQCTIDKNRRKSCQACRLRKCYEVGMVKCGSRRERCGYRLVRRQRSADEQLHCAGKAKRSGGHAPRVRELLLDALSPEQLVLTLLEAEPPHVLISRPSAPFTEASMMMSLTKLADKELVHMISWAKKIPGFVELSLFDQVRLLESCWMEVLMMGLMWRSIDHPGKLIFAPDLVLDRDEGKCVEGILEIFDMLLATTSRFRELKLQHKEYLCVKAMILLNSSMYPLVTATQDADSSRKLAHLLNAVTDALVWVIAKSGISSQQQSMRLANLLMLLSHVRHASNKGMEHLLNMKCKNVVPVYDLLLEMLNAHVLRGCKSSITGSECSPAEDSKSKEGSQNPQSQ
Chain of UniProt P51575 (whole entry, unmodified, looked up): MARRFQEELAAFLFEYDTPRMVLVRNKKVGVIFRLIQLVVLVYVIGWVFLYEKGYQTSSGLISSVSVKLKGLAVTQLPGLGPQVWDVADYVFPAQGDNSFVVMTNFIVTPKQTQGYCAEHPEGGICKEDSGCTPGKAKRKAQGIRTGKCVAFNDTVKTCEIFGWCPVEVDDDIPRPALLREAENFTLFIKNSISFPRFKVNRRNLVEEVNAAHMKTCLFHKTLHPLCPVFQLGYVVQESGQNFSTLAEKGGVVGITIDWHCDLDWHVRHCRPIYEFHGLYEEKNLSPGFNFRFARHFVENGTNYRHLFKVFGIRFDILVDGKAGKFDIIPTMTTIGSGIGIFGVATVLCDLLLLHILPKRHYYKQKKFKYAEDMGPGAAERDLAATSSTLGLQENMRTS
Chain of UniProt O75582 (whole entry, looked up): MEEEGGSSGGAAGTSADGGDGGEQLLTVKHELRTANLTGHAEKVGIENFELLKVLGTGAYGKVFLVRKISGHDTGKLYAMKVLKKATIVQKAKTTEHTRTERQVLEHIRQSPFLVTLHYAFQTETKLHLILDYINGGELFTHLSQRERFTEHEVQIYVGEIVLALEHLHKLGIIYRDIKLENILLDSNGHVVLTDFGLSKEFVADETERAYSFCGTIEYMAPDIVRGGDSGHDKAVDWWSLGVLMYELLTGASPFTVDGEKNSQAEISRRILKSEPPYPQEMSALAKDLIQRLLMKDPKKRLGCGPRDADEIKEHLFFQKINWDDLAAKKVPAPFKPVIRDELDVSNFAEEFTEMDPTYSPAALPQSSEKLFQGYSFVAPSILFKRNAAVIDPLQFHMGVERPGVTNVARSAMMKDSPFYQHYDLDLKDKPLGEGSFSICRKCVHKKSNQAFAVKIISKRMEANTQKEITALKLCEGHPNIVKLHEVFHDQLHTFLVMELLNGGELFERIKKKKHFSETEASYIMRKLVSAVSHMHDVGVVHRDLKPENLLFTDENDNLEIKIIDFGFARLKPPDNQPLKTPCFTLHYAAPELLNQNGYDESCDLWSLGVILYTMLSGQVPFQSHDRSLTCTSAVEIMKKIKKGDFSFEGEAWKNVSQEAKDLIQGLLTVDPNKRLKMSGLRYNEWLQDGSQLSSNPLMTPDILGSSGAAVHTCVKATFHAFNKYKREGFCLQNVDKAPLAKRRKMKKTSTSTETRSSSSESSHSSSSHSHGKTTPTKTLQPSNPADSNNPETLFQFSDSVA

Compound | tested on | test | system | setting | scale | endpoint | result
COc1ccc(Nc2cnnc3ccc(-c4cnc(N5CCCN(C)CC5)nc4)cc23)cc1 | Schistosoma mansoni | – | adult worms | 10 µM, 5 h | direction not given | phenotypic severity score | 0
CC(C)C[C@H](NC(=O)C[C@H](O)[C@H](CC(C)C)NC(=O)[C@H](Cc1c[nH]cn1)NC(=O)CNC(=O)[C@@H](NC(=O)[C@H](C)NC(=O)[C@H](Cc1c[nH]c2ccccc12)NC(=O)[C@H](CCC(N)=O)NC(=O)[C@@H](Cc1ccccc1)NC(=O)COCCOCCNC(=O)CCC(C(=O)O)N1CCN(CC(=O)O)CCN(CC(=O)O)CCN(CC(=O)O)CC1)C(C)C)C(N)=O (stereo partly shown) [lutetium-177 labelled] | – | – | BALB/c nu/nu mice, female, kidneys | 50 pmol, 1 h, with: PBS co-injection | – | tissue uptake | 5 ± 1 %ID/g
CC1=C(Cc2cn(CCN3CCNCC3)nn2)C(=O)c2ccccc2C1=O | Schistosoma mansoni | – | adult worms | 10 µM, 72 h | – | killing | 50%
Cc1cc(C(=O)NC(C)(C)COc2cccc3c2C(N)=NS(=O)(=O)N3)cc(C)n1 | human peripheral blood lymphocytes | CBPI, concurrent micronucleus test | – | 100 µg/mL, 4 h | relative to: vehicle control | cytotoxicity | 2%
NC(=O)c1cnc2[nH]ccc2c1N[C@@H]1[C@@H]2CC3C[C@H]1C[C@@](O)(C3)C2 | – | CD8+ memory T cells, flow cytometry | Japanese humans, peripheral blood | 200 mg single dose | relative to: baseline | percent change | -0.25%
COc1ccc(Nc2cnnc3ccc(-c4cnc(N5CCN(C)CC5)nc4)cc23)cc1Cl | Schistosoma mansoni | – | adult worms | 10 µM, 1 h | direction not given | phenotypic severity score | 0
OC(CCN1CCCCC1)(c1ccccc1)C1CC2C=CC1C2 (stereo not shown) | – | resting-state EEG | healthy elderly humans | oral, 4 mg, eyes closed, LS mean | relative to: baseline | change, Gamma power, EEG Pz-O1 | 3.1%
CC1=C(Cn2cc(CN3CCOCC3)nn2)C(=O)c2ccccc2C1=O | Schistosoma mansoni | – | adult worms | 25 µM, 48 h | – | killing | 46.5%
C[C@H](Oc1ccc(Br)cc1-c1ccon1)C(=O)O | – | first response latency | human, tibialis anterior muscle | 400 mg, 15 Hz, single ascending dose | – | difference from placebo | -0.295%
CC1=C(Cn2cncn2)C(=O)c2ccccc2C1=O | Schistosoma mansoni | – | adult worms | 10 µM, 24 h | – | killing | 40.8%
C=CC(=O)N1CCC(COCC(=O)N2CCN(c3nc(-c4cnc(N)nc4C(F)F)nc(N4CCOC[C@@H]4C)n3)CC2)CC1 | Ribosomal protein S6 kinase alpha-5, C-terminal kinase domain (RPS6KA5, Homo sapiens, UniProt O75582) | KINOMEscan | – | 1 µM | – | remaining binding | 100%
CC(C)NCC(O)c1ccc(O)c(O)c1 (stereo not shown) | – | – | ventricular cardiomyocytes, C57BL/6 mouse | dose not given, 0.068 s | – | sarcomere length | 1.72 µm
Nc1ncnc2c1ncn2[C@@H]1O[C@H](COP(=O)(O)CP(=O)(O)OP(=O)(O)O)[C@@H](O)[C@H]1O | P2X purinoceptor 1 (P2RX1, Homo sapiens, UniProt P51575, K215A) | calcium influx | – | 10 µM | relative to: ionomycin response | calcium influx | 100% and 90.1%
COc1ccc(Nc2cnnc3ccc(-c4ccc(S(=O)(=O)N5CCN(C)CC5)cc4)cc23)cc1 | Schistosoma mansoni | – | adult worms | 10 µM, 1 h | direction not given | phenotypic severity score | 0
O=C1[C@H](CC[C@H](O)c2ccc(F)cc2)[C@@H](c2ccc(O)cc2)N1c1ccc(F)cc1 | Nedd8-cullin1 interaction | neddylation, AlphaScreen | – | 100 µM | – | inhibition | 13%
O=c1cc(-c2ccc(O)cc2)oc2cc(O)c([C@@H]3O[C@H](CO)[C@@H](O)[C@H](O)[C@H]3O)c(O)c12 | ESR2 | array formation, agonist | GFP-ERβ PRL-HeLa | 1 h | – | EC50 | 1.56 µM
O=C(Nc1nc2cccc(-c3ccc(CN4CCS(=O)(=O)CC4)cc3)n2n1)C1CC1 | – | – | rheumatoid arthritis patients | oral, 100 mg twice daily, 4 weeks, TEAE regardless of relatedness | – | patients with Nausea | 16.7%
CC1=C(Cc2cn(CC#N)nn2)C(=O)c2ccccc2C1=O | Schistosoma mansoni | – | adult worms | 25 µM, 48 h | – | killing | 44.8%
C[C@H](N[C@@H](CCc1ccccc1)C(=O)O)C(=O)N1CCC[C@H]1C(=O)O | Nedd8-cullin1 interaction | neddylation, AlphaScreen | – | 100 µM | – | inhibition | 14.6%
CN1CCN(c2ncc(-c3ccc4nncc(Nc5ncccn5)c4c3)cn2)CC1 | Schistosoma mansoni | – | adult worms | 10 µM, 5 h | direction not given | phenotypic severity score | 0

Compound | tested on | test | system | setting | scale | endpoint | result
CC1=C(Cc2cn(CCN3CCN(C(=O)OC(C)(C)C)CC3)nn2)C(=O)c2ccccc2C1=O | Schistosoma mansoni | – | adult worms | 25 µM, 48 h | – | killing | 46.9%
CCCC(=O)OCOC(=O)C1=C(C)NC(C)=C(C(=O)OC)C1c1cccc(Cl)c1Cl (stereo not shown) | Nedd8-cullin1 interaction | neddylation, AlphaScreen | – | 100 µM | – | inhibition | 28.9%
COc1ccc(CC(=O)C(=O)O)cc1 | Nostoc punctiforme | substrate, Ellman CoA release | – | with: acetyl-CoA | – | Km | 310 ± 53 µM
Nc1nc2c(ncn2[C@@H]2O[C@H](COP(=O)(O)O)[C@@H](O)[C@H]2O)c(=O)[nH]1 | GUK1 (Homo sapiens, UniProt Q16774, D103A) | enzyme activity, NADH-coupled | – | 125 µM | – | reaction rate | 9.79 s⁻¹ and 8.5 s⁻¹ and 8.92 s⁻¹
COc1ccc(Nc2cnnc3cc(-c4ccc(S(=O)(=O)N5CCN(C)CC5)cc4)ccc23)cc1 | Schistosoma mansoni | – | adult worms | 10 µM, 5 h | direction not given | phenotypic severity score | 0
CC1=C(Cn2cc([Si](C)(C)C)nn2)C(=O)c2ccccc2C1=O | Schistosoma mansoni | – | adult worms | 10 µM, 48 h | – | killing | 39.8%
CN1CCN(c2ccc(-c3ccc4nncc(Nc5cnccn5)c4c3)cc2)CC1 | Schistosoma mansoni | – | adult worms | 10 µM, 24 h | direction not given | phenotypic severity score | 0
O=C(O)CNC(=O)Cc1ccccc1 | – | – | ventricular cardiomyocytes, C57BL/6 mouse | dose not given, 0.596 s | – | sarcomere length | 1.66 µm
N#Cc1ccn2c(-c3ccncc3)c(-c3ccc(F)cc3)nc2c1 | – | kinase binding, competitor, MIB/MS competition, refers to: RIM11 | Candida albicans cell lysate | 100 nM | relative to: DMSO | log2 fold change | -0.28
O=C1C[C@@H](c2ccc(O)cc2)Oc2cc(O)cc(O)c21 | ESR2 | array formation, agonist | GFP-ERβ PRL-HeLa | 1 h | – | EC50 | 0.87 µM
CCOC(=O)Nc1ccc2c(c1)N(C(=O)CCN1CCOCC1)c1ccccc1S2 | Nedd8-cullin1 interaction | neddylation, AlphaScreen | – | 100 µM | – | inhibition | 41.6%
COc1ccc(Nc2cnnc3ccc(-c4cnc(N5CCCN(C)CC5)nc4)cc23)cc1Cl | Schistosoma mansoni | – | adult worms | 10 µM, 24 h | direction not given | phenotypic severity score | 2
NCc1ccc(C(=O)O)cc1 | Nedd8-cullin1 interaction | neddylation, AlphaScreen | – | 100 µM | – | inhibition | 16.5%
Cn1cc(Nc2nccc(-c3ccc4c(c3)CN(C3COC3)CC[C@H]4NC(=O)c3cn(C(C)(C)C)nn3)n2)cn1 | – | – | human, whole blood | 50 mg twice daily, day 7 | relative to: pre-dose baseline | B cell count change | 130%
COc1cc2nc(N3CCN(C(=O)c4ccco4)CC3)nc(N)c2cc1OC | Nedd8-cullin1 interaction | neddylation, AlphaScreen | – | 100 µM | – | inhibition | 34.2%
CC1=C(Cn2cc(CO)nn2)C(=O)c2ccccc2C1=O | Schistosoma mansoni | – | adult worms | 25 µM, 72 h | – | killing | 57.9%
COc1cc(OC)c(C(=O)CCCN2CCCC2)c(OC)c1.Cl | Nedd8-cullin1 interaction | neddylation, AlphaScreen | – | 100 µM | – | inhibition | -15.8%
O=C(O)CC[C@H](NC(=O)N[C@@H](CCCCNC(=O)[C@H](Cc1ccc2ccccc2c1)NC(=O)CCCCCNC(=O)CN1CCN(CC(=O)O)CCN(CC(=O)O)CCN(CC(=O)O)CC1)C(=O)O)C(=O)O [gallium-68 labelled] | – | PET/CT | mouse, 22Rv1 xenograft, muscle | intravenous, 3.7 MBq, 1 h | – | SUVmean | 0.25 ± 0.005 SUV
CC1=C(Cn2ccnc2[N+](=O)[O-])C(=O)c2ccccc2C1=O | Schistosoma mansoni | – | adult worms | 25 µM, 72 h | – | killing | 71.3%
CN(CCO)CC(O)Cn1cnc2c1c(=O)n(C)c(=O)n2C.O=C(O)c1cccnc1 (stereo not shown) | Nedd8-cullin1 interaction | neddylation, AlphaScreen | – | 100 µM | – | inhibition | -3.3%

Excerpt of the above:
Compound | tested on | test | system | setting | scale | endpoint | result
COc1ccc(CC(=O)C(=O)O)cc1 | Nostoc punctiforme | substrate, Ellman CoA release | – | with: acetyl-CoA | – | Km | 310 ± 53 µM
Nc1nc2c(ncn2[C@@H]2O[C@H](COP(=O)(O)O)[C@@H](O)[C@H]2O)c(=O)[nH]1 | GUK1 (Homo sapiens, UniProt Q16774, D103A) | enzyme activity, NADH-coupled | – | 125 µM | – | reaction rate | 9.79 s⁻¹ and 8.5 s⁻¹ and 8.92 s⁻¹
COc1ccc(Nc2cnnc3cc(-c4ccc(S(=O)(=O)N5CCN(C)CC5)cc4)ccc23)cc1 | Schistosoma mansoni | – | adult worms | 10 µM, 5 h | direction not given | phenotypic severity score | 0
CC1=C(Cn2cc([Si](C)(C)C)nn2)C(=O)c2ccccc2C1=O | Schistosoma mansoni | – | adult worms | 10 µM, 48 h | – | killing | 39.8%
